Results gathered from unrelated publications.
Parts stem from different laboratories: compare values within a part only.

Sample 1 — technique: universal PBM; form: double-stranded DNA, one strand shown; sample: in vitro; tested at: 600 nM; direction: higher = stronger binding
Target: Sal-like protein 4, full length isoform A (SALL4, Homo sapiens, UniProt Q9UJQ4, residues 1-1053)
Sequence of UniProt Q9UJQ4 (whole entry, looked up): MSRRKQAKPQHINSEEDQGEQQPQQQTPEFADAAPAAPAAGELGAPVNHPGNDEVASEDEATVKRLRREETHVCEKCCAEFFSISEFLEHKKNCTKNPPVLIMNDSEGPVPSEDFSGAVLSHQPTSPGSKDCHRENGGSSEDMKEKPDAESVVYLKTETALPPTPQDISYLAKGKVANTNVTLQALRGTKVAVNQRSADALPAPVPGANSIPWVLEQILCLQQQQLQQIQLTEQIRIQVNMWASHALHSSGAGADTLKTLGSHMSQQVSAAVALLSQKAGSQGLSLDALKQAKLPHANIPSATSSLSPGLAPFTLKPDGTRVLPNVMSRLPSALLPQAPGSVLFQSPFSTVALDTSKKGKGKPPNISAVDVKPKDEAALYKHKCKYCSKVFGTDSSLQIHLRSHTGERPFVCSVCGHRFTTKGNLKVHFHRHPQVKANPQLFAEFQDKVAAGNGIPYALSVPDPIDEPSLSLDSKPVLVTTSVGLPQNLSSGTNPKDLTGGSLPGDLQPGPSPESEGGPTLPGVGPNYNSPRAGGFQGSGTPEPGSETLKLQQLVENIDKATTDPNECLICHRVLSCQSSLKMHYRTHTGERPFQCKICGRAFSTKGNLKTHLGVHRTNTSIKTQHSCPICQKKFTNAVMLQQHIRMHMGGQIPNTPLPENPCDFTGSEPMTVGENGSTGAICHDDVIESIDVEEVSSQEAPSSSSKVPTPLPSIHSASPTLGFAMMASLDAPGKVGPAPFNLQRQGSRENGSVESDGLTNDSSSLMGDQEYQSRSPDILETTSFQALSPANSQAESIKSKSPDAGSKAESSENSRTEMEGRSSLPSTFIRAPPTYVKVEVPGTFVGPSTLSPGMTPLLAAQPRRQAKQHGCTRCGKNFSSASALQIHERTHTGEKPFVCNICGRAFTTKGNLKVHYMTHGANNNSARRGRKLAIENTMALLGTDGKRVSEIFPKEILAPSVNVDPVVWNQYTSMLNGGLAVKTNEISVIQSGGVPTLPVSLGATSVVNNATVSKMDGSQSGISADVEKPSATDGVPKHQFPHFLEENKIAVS
Setting: 8-mer, flanks averaged, mean of replicates
Strand | E-score
AGTGCTTG | 0.106
ACATCCGC | -0.114
CAATAGGA | 0.134
AAAACGTA | 0.15

Sample 2 — technique: protein-binding microarray; form: double-stranded DNA, one strand shown; sample: in vitro; tested at: 250 nM; setting: 60-bp whole probe; added: salmon DNA 0.4 mg/ml; reference: random background probes; direction: higher = stronger binding
Target: Interferon regulatory factor 5, full length, phosphomimetic (IRF5, Homo sapiens, UniProt Q13568-2, residues 1-514, K96S/S451D/S453D/S456D/S462D)
Strand | log fluorescence
GCCTAGCACGACGATATCAGTATCTAGACGTGCTAGGTCTTGATTCGCTTGACGCTGCTG | 1.35 z-score
GCCTAGCACTCATTTTAAAGTTTCAGACTGTGCTAGGTCTTGATTCGCTTGACGCTGCTG | 1.11 z-score
GCCTAGCACTTAGGTATCGACTATGGGTTAGTGCTAGTCTTGATTCGCTTGACGCTGCTG | 3.22 z-score
GCCTAGCACGACGGGCTGGGGTTTCGGGACGTGCTAGTCTTGATTCGCTTGACGCTGCTG | 0.872 z-score

Sample 3 — technique: protein binding microarray; form: double-stranded DNA, one strand shown; sample: in vitro; tested at: not given; reference: not given; direction: higher = stronger binding
Target: Histone acetyltransferase KAT6A, winged helix 1, GST fusion (KAT6A, Homo sapiens, UniProt Q92794, residues 1-85)
Setting: 8-mer, flanks averaged, mean of 2 arrays, mostly near background
Target sequence (chain): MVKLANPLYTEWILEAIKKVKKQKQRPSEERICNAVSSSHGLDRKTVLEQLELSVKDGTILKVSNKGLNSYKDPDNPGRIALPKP
Strand | E-score
CCGCCGGA | 0.467
ACCCATCA | -0.12
ATCTACCA | -0.288
ATCCAGCA | -0.202

Further values, each from its own experiment
Substance | target | assay | system | setting | how to read | endpoint | result
PhoQ, residues 284 288 289 292 302 303 ALASRC | PhoP, residues 12 14 15 18 19 TPWLV (Escherichia coli, UniProt P23836) | Sort-seq, measured: YFP reporter | E. coli | PhoQ-PhoP variant library, added: 10 µM Mg2+ | reference: high Mg2+ state, higher = stronger signaling | fold induction | 1.24
